Published values gathered from unrelated publications.
Several values in a cell are separate wells, animals, samples, runs or records. ± marks the error that the study gave.

Compound = Cc1ccccc1-c1ccc(-c2nc(-c3ccc(CN(C)CCCC(=O)O)c([18F])c3)no2)cc1C(F)(F)F; system = rat, spleen; conditions = 30 min; endpoint = tracer uptake; value = 0.36 %ID/g
Compound = CCCCC[C@H]1C(=O)N[C@H](C)C(=O)N(C)[C@@H](CCCCC)C(=O)N[C@H](C)C(=O)N(C)[C@@H](CCCCC)C(=O)N(C)[C@H](C)C(=O)N(C)[C@@H](CCCCC)C(=O)N(C)[C@H](C)C(=O)N1C; test = PAMPA; conditions = 500 µM, pH 7.4; endpoint = log Papp; value = 4.57 ×10⁻⁶ cm/s
Compound = CC(C)[C@H](NC(=O)[C@@H](NC(=O)[C@H](CCCNC(=N)N)NC(=O)[C@H](CCCNC(=N)N)NC(=O)[C@H](CCCNC(=N)N)NC(=O)[C@H](CCC(N)=O)NC(=O)[C@H](CCCNC(=N)N)NC(=O)[C@H](CCCNC(=N)N)NC(=O)[C@H](CCCCN)NC(=O)[C@H](CCCCN)NC(=O)[C@H](CCCNC(=N)N)NC(=O)CN)[C@@H](C)O)C(=O)N[C@H](C(=O)N[C@@H](CO)C(=O)N1CCC[C@H]1C(=O)O)[C@@H](C)O; system = ICR mice, male, lung; conditions = intranasal, 20 mg/kg daily, 4 weeks; endpoint = organ weight; value = 0.39 ± 0.028 g
Compound = CC[C@H](C)[C@H](NC(=O)[C@@H](Cc1c[nH]c2ccccc12)NC(=O)[C@@H]1CCCN1C(=O)[C@H](CCCCN)NC(=O)[C@H](CCCCN)NC(=O)CCNC(=O)CCNC(=O)CN1CCN(CC(=O)O)CCN(CC(=O)O)CCN(CC(=O)O)CC1)C(=O)N[C@@H](C[Si](C)(C)C)C(=O)O [gallium-68 labelled]; system = nude mouse HT-29 xenograft, lungs; conditions = 90 min; endpoint = tissue uptake; value = 1.6 ± 0.24 %ID/g
Compound = CC[C@H](C)[C@H](NC(=O)[C@H](CCCNC(=N)N)NC(=O)[C@H](CCCCN)NC(=O)[C@H](Cc1ccc(O)cc1)NC(=O)[C@H](CC(=O)O)NC(=O)[C@H](C)NC(=O)CNC(=O)CCOCCOCCOCCNC(=O)CN1CCN(CC(=O)O)CCN(CC(=O)O)CCN(CC(=O)O)CC1)C(=O)N[C@H](C(=O)N[C@@H](CC(C)C)C(=O)N[C@@H](CCCCN)C(=O)N[C@H](C(=O)N[C@@H](CC(N)=O)C(N)=O)C(C)C)[C@@H](C)O [copper-64 labelled]; test = ex vivo gamma counting; system = C57BL/6J male mice, B16-F10 tumour, blood; conditions = intravenous, 1.85 MBq, 5 min; endpoint = tissue uptake; value = 6.83 ± 0.356 %ID/g
Compound = CCCCCCCCCCCCCCCC(=O)N[C@@H](CCC(=O)NCCOCCOCCC(=O)NCCOCCOCCC(=O)NCCCC[C@H](NC(=O)[C@H](CC(=O)O)NC(=O)[C@H](CC(C)C)NC(=O)[C@H](Cc1ccc(O)cc1)NC(=O)[C@H](CCCCN)NC(=O)[C@H](CO)NC(=O)[C@H](Cc1ccc(O)cc1)NC(=O)[C@H](CC(=O)O)NC(=O)[C@H](CO)NC(=O)[C@@H](NC(=O)[C@H](Cc1ccccc1)NC(=O)[C@@H](NC(=O)CNC(=O)[C@H](CCC(N)=O)NC(=O)[C@@H](CO)NC(=O)[C@@H](N)Cc1c[nH]cn1)[C@@H](C)O)[C@@H](C)O)C(=O)N[C@@H](CCCNC(=N)N)C(=O)N[C@@H](CCCNC(=N)N)C(=O)N[C@@H](C)C(=O)N[C@@H](CCC(N)=O)C(=O)N[C@@H](CC(=O)O)C(=O)N[C@@H](Cc1ccccc1)C(=O)N[C@H](C(=O)N[C@@H](CCC(N)=O)C(=O)N[C@@H](Cc1c[nH]c2ccccc12)C(=O)N[C@@H](CC(C)C)C(=O)N[C@@H](CC(C)C)C(=O)N[C@@H](CC(N)=O)C(=O)N[C@H](C(=O)NCC(=O)NCC(=O)N1CCC[C@H]1C(=O)N[C@@H](CO)C(=O)N[C@@H](CO)C(=O)NCC(=O)N[C@@H](C)C(=O)N1CCC[C@H]1C(=O)N1CCC[C@H]1C(=O)N1CCC[C@H]1C(=O)N[C@@H](CO)C(N)=O)[C@@H](C)O)C(C)C)C(=O)O; system = rhesus monkey, female, plasma; conditions = subcutaneous, 20 µg/kg, day 1, toxicokinetics, mean; endpoint = AUC(0-t); value = 106 ng·h/mL
Compound = CC(CCC(=O)NCC(=O)O)C1CCC2C3C(O)CC4CC(OC5OC(C(=O)O)C(O)C(O)C5O)CCC4(C)C3CCC12C (stereo not shown); system = women, C/C genotype, plasma; conditions = dose not given, geometric mean; endpoint = plasma concentration; value = 139 ng/mL
Compound = C[C@H](NC(=O)CNC(=O)[C@@H]1CCCN1C(=O)[C@H](CO)NC(=O)CNC(=O)[C@H](CO)NC(=O)[C@H](C)NC(=O)[C@H](CC(N)=O)NC(=O)[C@H](C)NC(=O)[C@H](CO)NC(=O)[C@H](C)NC(=O)[C@H](CO)NC(=O)[C@@H]1CCCN1C(=O)[C@H](Cc1ccccc1)NC(=O)[C@H](C)NC(=O)[C@H](CO)NC(=O)[C@@H]1CCCN1C(=O)[C@H](Cc1ccccc1)NC(=O)[C@@H](NC(=O)[C@H](CC(=O)O)NC(=O)[C@@H](N)CO)[C@@H](C)O)C(=O)N[C@@H](CCCNC(=N)N)C(=O)N[C@@H](CO)C(=O)O; system = 50% mouse plasma; conditions = 80 min; endpoint = remaining peptide; value = 1.03%
Compound = COc1ccc([C@@H]2CC(=O)c3c(O)cc(O[C@@H]4O[C@H](CO)[C@@H](O)[C@H](O)[C@H]4O[C@@H]4O[C@@H](C)[C@H](O)[C@@H](O)[C@H]4O)cc3O2)cc1O; system = male Sprague-Dawley rats, obese, urine; conditions = oral, 100 mg/kg, 48 to 36 h, total after deconjugation; endpoint = urinary excretion; value = 3.45 ± 1.07 ng
Compound = C#Cc1c(F)ccc2cc(O)cc(-c3ncc4c(N5CC6CCC(C5)N6C(=O)OC(C)OC(=O)C(CC)CCCC)nc(OC[C@@]56CCCN5C[C@H](F)C6)nc4c3F)c12 (stereo partly shown); test = item: prodrug; system = mouse whole blood; conditions = 1 µM; endpoint = t1/2; value = 0.0241 days
Compound = CC[C@H](C)[C@H](NC(=O)[C@H](CCCCN)NC(=O)CNC(=O)[C@H](CC(C)C)NC(=O)[C@H](Cc1ccccc1)NC(=O)[C@H](CCCCN)NC(=O)[C@H](CO)NC(=O)[C@H](Cc1ccccc1)NC(=O)[C@H](Cc1c[nH]c2ccccc12)NC(=O)[C@H](CCC(N)=O)NC(=O)[C@@H](NC(=O)[C@H](Cc1ccccc1)NC(=O)CCCCCNC(=O)CN1CCN(CC(=O)O)CCN(CC(=O)O)CCN(CC(=O)O)CC1)C(C)C)C(=O)N[C@@H](CCC(=O)O)C(=O)N1CCC[C@H]1C(=O)N[C@@H](CC(=O)O)C(=O)N[C@H](C(=O)N[C@@H](CO)C(=O)N[C@@H](CCC(N)=O)C(=O)N[C@H](C(=O)N[C@@H](CCC(N)=O)C(=O)N[C@@H](CC(=O)O)C(=O)N1CCC[C@H]1C(=O)N[C@@H](CC(N)=O)C(=O)N[C@@H](CC(=O)O)C(=O)N[C@@H](CCC(N)=O)C(=O)N[C@@H](Cc1ccc(O)cc1)C(=O)N[C@@H](CCC(=O)O)C(=O)N1CCC[C@H]1C(=O)N[C@@H](Cc1ccccc1)C(=O)O)C(C)C)C(C)C [copper-64 labelled]; system = BALB/c mice, male, CT26 tumour-bearing, stomach; conditions = 2 h, anti-PD1 plus anti-CTLA4 treated; endpoint = tissue uptake; value = 1.66 ± 0.6 %ID/g
Compound = C[C@H](O)[C@@H](NC(=O)[C@H]1CCCN1C(=O)[C@@H](CCCCN)NC(=O)[C@@H](CO)NC(=O)[C@@H](Cc1ccc(O)cc1)NC(=O)[C@@H](CC(N)=O)NC(=O)CCOCCOCCOCCNC(=O)CN1CCN(CC(=O)O)CCN(CC(=O)O)CCN(CC(=O)O)CC1)C(=O)N[C@H](CC(=O)O)C(=O)N[C@H](CCCNC(=N)N)C(=O)N[C@H](CCC(N)=O)C(=O)N[C@H](Cc1ccc(O)cc1)C(=O)N[C@H](Cc1c[nH]cn1)C(=O)N[C@H](Cc1ccccc1)C(N)=O [gallium-68 labelled]; system = BALB/c nude mice U-87 MG tumour, heart; conditions = intravenous, 1.85 MBq, 2 h, radiolabelled; endpoint = tissue uptake; value = 0.05 ± 0.02 %ID/g
Compound = CC[C@H](C)[C@@H]1NC(=O)[C@H](Cc2ccc(O)cc2)NC(=O)[C@@H](N)CSCSC[C@@H](C(=O)N2CCC[C@H]2C(=O)N[C@@H](CC(C)C)C(=O)NCC(N)=O)NC(=O)[C@H](CC(N)=O)NC(=O)[C@H](CCC(N)=O)NC1=O; system = phosphate buffer; conditions = 0.1 mg/mL, pH 4.5, 40 °C; endpoint = half-life; value = 133 days
Compound = CCCCCCCCCCCC(=O)C(C)C(=O)N1CCC[C@H]1C(=O)NC(C)(C)C(=O)NC(C)(C)C(=O)NC(C)(C)C(=O)N[C@](C)(CC)C(=O)NCCC(=O)N[C@@H](C)C(=O)N[C@](C)(CC)C(=O)N[C@@H](C)C(=O)N[C@@H](CC(C)C)C(=O)N[C@](C)(CC)C(=O)NCCC(=O)N[C@@H](C)C(=O)N[C@](C)(CC)C(=O)NCCC(=O)N[C@@H](C)C(=O)NC(C)(C)C(=O)NC(C)(C)C(=O)NC(C)(C)C(=O)N[C@@H](C)C(=O)N[C@@H](CC(=O)O)C(=O)O (stereo partly shown); test = LC-MS; system = 50% pooled human serum; conditions = 40 µM, 10 min, pH 7.5, 37 °C; scale = reference: 0 h; endpoint = remaining intact peptide; value = 65.4% and 71.9% and 75.3%
Compound = O=C1NC2(CC2)COc2ncc(F)cc2[C@H]2COCCN2c2ccn3ncc1c3n2; system = Sprague-Dawley rats, male, blood; conditions = oral, 5 mg/kg/day, end of recovery, 4-week subacute toxicity; endpoint = fibrinogen; value = 1.73 ± 0.15 g/L
Compound = CN1Cc2cc(Cl)ccc2-n2c(nnc2C2CCN(c3cccc([18F])n3)CC2)C1; test = PET two-tissue compartment model; system = rhesus monkey, hippocampus; conditions = intravenous, dose not given, 90 min scan, baseline scan; endpoint = total volume of distribution; value = 1.11 ± 0.29 mL/cm3
Compound = CC(C)C[C@H](N)C(=O)N1CCC[C@H]1C(=O)N[C@@H](Cc1ccccc1)C(=O)N[C@@H](Cc1ccccc1)C(=O)N[C@@H](CC(=O)O)C(N)=O; test = RP-HPLC; system = 50% human serum; conditions = 100 µM, 24 h, 37 °C; endpoint = intact peptide remaining; value = 32%
Compound = COc1ccc(C([O-])=CC(=O)c2ccc(C(C)(C)C)cc2)cc1.[Ru+2].c1ccc(-c2cccc(-c3ccccn3)n2)nc1.c1cnccn1; system = zebrafish larvae; conditions = 10 µM; endpoint = toxicity; value = 100%
Compound = CSCC[C@H](N)C(=O)N[C@@H](C)C(=O)N[C@@H](CCCNC(=N)N)C(=O)N[C@@H](CCCNC(=N)N)C(=O)N[C@@H](CC(=O)O)C(=O)N[C@@H](CCCCN)C(=O)N[C@H](C(=O)N[C@@H](CC(=O)O)C(=O)N[C@@H](Cc1ccccc1)C(=O)N[C@@H](C)C(=O)N[C@@H](CCCNC(=N)N)C(=O)N[C@@H](CCCNC(=N)N)C(=O)N[C@@H](CCCNC(=N)N)C(=O)N[C@@H](CCCNC(=N)N)C(=O)NCCCCCC(=O)NCCCCC(NC(=O)CCCCCNC(=O)[C@H](CCCNC(=N)N)NC(=O)[C@H](CCCNC(=N)N)NC(=O)[C@H](CCCNC(=N)N)NC(=O)[C@H](CCCNC(=N)N)NC(=O)[C@H](C)NC(=O)[C@H](Cc1ccccc1)NC(=O)[C@H](CC(=O)O)NC(=O)[C@@H](NC(=O)[C@H](CCCCN)NC(=O)[C@H](CC(=O)O)NC(=O)[C@H](CCCNC(=N)N)NC(=O)[C@H](CCCNC(=N)N)NC(=O)[C@H](C)NC(=O)[C@@H](N)CCSC)[C@@H](C)O)C(=O)NCCCCC(NC(=O)C(CCCCNC(=O)CCCCCNC(=O)[C@H](CCCNC(=N)N)NC(=O)[C@H](CCCNC(=N)N)NC(=O)[C@H](CCCNC(=N)N)NC(=O)[C@H](CCCNC(=N)N)NC(=O)[C@H](C)NC(=O)[C@H](Cc1ccccc1)NC(=O)[C@H](CC(=O)O)NC(=O)[C@@H](NC(=O)[C@H](CCCCN)NC(=O)[C@H](CC(=O)O)NC(=O)[C@H](CCCNC(=N)N)NC(=O)[C@H](CCCNC(=N)N)NC(=O)[C@H](C)NC(=O)[C@@H](N)CCSC)[C@@H](C)O)NC(=O)CCCCCNC(=O)[C@H](CCCNC(=N)N)NC(=O)[C@H](CCCNC(=N)N)NC(=O)[C@H](CCCNC(=N)N)NC(=O)[C@H](CCCNC(=N)N)NC(=O)[C@H](C)NC(=O)[C@H](Cc1ccccc1)NC(=O)[C@H](CC(=O)O)NC(=O)[C@@H](NC(=O)[C@H](CCCCN)NC(=O)[C@H](CC(=O)O)NC(=O)[C@H](CCCNC(=N)N)NC(=O)[C@H](CCCNC(=N)N)NC(=O)[C@H](C)NC(=O)[C@@H](N)CCSC)[C@@H](C)O)C(N)=O)[C@@H](C)O (stereo partly shown); system = C57BL/6 mouse female, pancreas; conditions = dose not given, 3 h; scale = reference: total; endpoint = mean tissue distribution; value = 1.15%

Excerpt of the above:
Compound = Cc1ccccc1-c1ccc(-c2nc(-c3ccc(CN(C)CCCC(=O)O)c([18F])c3)no2)cc1C(F)(F)F; system = rat, spleen; conditions = 30 min; endpoint = tracer uptake; value = 0.36 %ID/g
